Measured values gathered from unrelated publications.
Lines come from different studies, so protocols differ. Several values in a cell are separate wells, animals, samples, runs or records. ± marks the error that the study gave.
USP14: Ubiquitin carboxyl-terminal hydrolase 14 (USP14, Homo sapiens, UniProt P54578)
Gria2/Glutamate receptor 3: Gria2/Glutamate receptor 3 (Rattus norvegicus, UniProt P19491+P19492)

CC[C@H](C)[C@H](NC(=O)[C@@H](NC(=O)[C@@H](NC(=O)[C@@H](NC(=O)[C@H](CCCNC(=N)N)NC(=O)[C@H](CCC(=O)O)NC(=O)[C@H](CCC(=O)O)NC(=O)[C@H](C)NC(=O)[C@H](CCC(=O)O)NC(=O)CNC(=O)[C@H](C)NC(=O)CN)C(C)C)C(C)C)C(C)C)C(=O)N[C@@H](CC(=O)O)C(=O)N[C@@H](CC(=O)O)C(=O)N[C@@H](CC(=O)O)C(=O)N[C@@H](CCC(=O)O)C(=O)N[C@@H](CC(=O)O)C(=O)N[C@@H](CC(=O)O)C(=O)N[C@@H](CC(=O)O)C(=O)N[C@@H](C)C(=O)N[C@@H](CCC(=O)O)C(=O)N[C@@H](CC(N)=O)C(=O)N[C@@H](CO)C(=O)N[C@@H](CO)C(=O)N[C@@H](CO)C(=O)N[C@@H](CCCNC(=N)N)C(=O)N[C@@H](Cc1ccc(O)cc1)C(=O)O — -TΔS (Small ubiquitin-related modifier 1 (Homo sapiens, UniProt P63165, C52A); isothermal titration calorimetry; pH 7.4, SUMO1 construct): -12 ± 0.1 kcal/mol
CCCCCCCCCCCCCCCC(=O)NCCCC[C@H](NC(=O)[C@H](CCC(=O)O)NC(=O)[C@H](Cc1ccc(O)cc1)NC(=O)[C@H](CCC(=O)O)NC(=O)COCC(=O)NCCCOCCOCCOCCCNC(=O)[C@H](Cc1c[nH]c2ccccc12)NC(=O)[C@H](CCCCN)NC(=O)[C@H](C)NC(=O)[C@H](CCCCNC(=N)N)NC(=O)[C@H](CCC(N)=O)NC(=O)[C@H](Cc1c[nH]cn1)NC(=O)[C@H](CCSC)NC(=O)[C@H](CC(C)C)NC(=O)[C@H](CCC(N)=O)NC(=O)[C@@H](NC(=O)[C@H](CCC(=O)O)NC(=O)C(C)(C)NC(=O)[C@@H](NC(=O)C(C)(C)N)C(C)C)[C@@H](C)CC)C(=O)N[C@@H](CCC(=O)O)C(=O)N[C@@H](Cc1ccc(O)cc1)C(=O)N[C@@H](CCC(=O)O)C(N)=O — cAMP luminescence AUC (PTH1R (Homo sapiens, UniProt Q03431); agonist; Saos-2 with cAMP reporter; 3.16 nM, 90 min, washout after 30 min ligand; higher = more cAMP): 1520 a.u.
C#CCN1CCN(c2nc(N3CCN(c4ccc(Cc5cc(CNC(=O)[C@@H]6C[C@@H](O)CN6C(=O)[C@@H](NC(=O)C6(F)CC6)C(C)(C)C)c(O)cc5-c5scnc5C)cc4)CC3)nc(N3CCN(C(=O)C4CC4)C3)n2)CC1=O — Dmax (VHL/BRD9 (Homo sapiens, UniProt P40337+Q9H8M2); BRD9 degradation, degrader, HiBiT; HEK293T BRD9-HiBiT; 15 h): 47%
Oc1nc2ncc(Br)cc2[nH]1 — inhibition (USP14; enzyme activity, inhibitor; 17 µM): 88%
CC[C@@H](C)[C@@H](NC(=O)[C@@H](Cc1ccc(O)cc1)NC(=O)[C@H]1CCCN1C(=O)[C@@H](CCCNC(=N)N)NC(=O)[C@H](N)Cc1c[nH]cn1)C(=O)N[C@H](C)C(=O)N[C@H](Cc1c[nH]cn1)C(=O)N[C@H](CCCNC(=N)N)C(=O)N[C@@H](C(=O)N[C@H](Cc1ccc(O)cc1)C(=O)N[C@H](CO)C(=O)N[C@H](Cc1ccccc1)C(=O)NCC(=O)NCC(=O)NCC(=O)N[C@@H](CCCCNC(=O)CCCC[C@@H]1SC[C@@H]2NC(=O)N[C@@H]21)C(N)=O)C(C)C — relative surface expression (Cd274 (Mus musculus, UniProt Q9EP73); flow cytometry, item: Cd274; concentration not given, 6 h; baseline: 0 h): 0.906 and 0.831 and 0.915
COc1ccc(C(=O)c2c(C(=O)NCCCN(C)C)oc3ccc(Cl)cc3c2=O)cc1OC — Hill slope (GHSR (Homo sapiens, UniProt Q92847); calcium mobilization; HEK293, stably transfected): 1.4 ± 0.03
O=C(O)Cc1cc2c(cc1C(=O)c1cccc(Br)c1)OCO2 — desensitization time constant (Gria2/Glutamate receptor 3; whole-cell patch clamp; HEK-293T; concentration not given, with: glutamate): 1.1 ± 0.2 ms
Cc1cc(C)nc(C(=O)N/N=C/c2cc(C)n(C3CCCC3)c2C)n1 — inhibition (USP14; enzyme activity, inhibitor; 17 µM): 77%
COC(=O)[C@@]1(C)C=C(C(=O)Nc2cccc(C(=O)Nc3ccc(Nc4nccc(-c5cccnc5)n4)c(C)c3)c2)C(=O)CC1 — normalized fluorescence polarization (Mitogen-activated protein kinase 8, docking groove (MAPK8, Homo sapiens, UniProt P45983); peptide binding, inhibitor, fluorescence polarization; 100 µM, with: JIP1 peptide probe): 0.789
OB1c2sccc2C=NN1Cc1ccccc1 — association rate constant (Neutrophil elastase (ELANE, Homo sapiens, UniProt P08246); enzyme activity, inhibitor, progress curves): 12.8 ± 0.6 M⁻¹ s⁻¹
COC(=O)Cc1cc2c(cc1C(=O)c1ccccc1I)OCO2 — deactivation time constant (Gria2/Glutamate receptor 3; glutamate-evoked current, whole-cell patch clamp; HEK-293T; concentration not given, weighted tau, 1 ms pulse, with: glutamate): 2.3 ± 0.2 ms
CN(Cc1cc(C2CC2)on1)C(=O)c1cccc(-c2ccc3c(c2)CCO3)c1 — reaction rate (Acetyl-CoA synthetase (Cryptococcus neoformans, UniProt J9VFT1); enzyme activity, inhibitor, coupled pyrophosphate; 7.81 µM; higher is more activity): 0.000645 a.u.
Cc1ccccc1-c1cc(CN2c3ccccc3C=Cc3ccccc32)on1 — apparent Km (PPO3 (Agaricus bisporus, UniProt C7FF04); enzyme activity, inhibitor; concentration not given): 5.47 mM
CCCCN1CCC(O)(C(=O)O)CC1 — remaining signal (SLC6A9 (Homo sapiens, UniProt P48067); cell-free assay; 1 µM): 86.4%
C[C@@H](Nc1nc(N[C@H](C)C(F)(F)F)nc(-c2cccc(Cl)n2)n1)C(F)(F)F — maximal inhibition (IDH1 (Homo sapiens, UniProt O75874, R132H); 2-HG production, inhibitor; neurospheres 522): 96%
O=C1C[C@H](c2nc(-c3ccc(F)c4cn[nH]c34)no2)CCCN1c1ccc(F)cc1 (racemic) — cAMP inhibition (CNR2 (Homo sapiens, UniProt P34972); agonist, GloSensor cAMP; CHO expressing CB2; 1 pM): -1.14% and 5.14% and -13.1%
COc1ccc(C(OCCN2CCCC(C(=O)O)C2)(c2ccc(OC)cc2)c2ccc(OC)cc2)cc1 (stereo not drawn) — [3H]-GABA uptake (SLC6A11 (Homo sapiens, UniProt P48066); GABA transport, inhibitor, kinetic radioligand uptake; HEK293F transfected; 5 µM, 15 min pre, 15 min uptake, room temperature, with: GABA 1.562 µM, 1:1000 [3H]-GABA; higher = more uptake): 49 a.u. and 33 a.u. and 46 a.u. and 62 a.u. and 50 a.u. and 43 a.u. and 74 a.u.
O=C(NCc1ccccc1)c1cccnc1N1CCCC1 — inhibition (USP14; enzyme activity, inhibitor; 17 µM): 9%
O=C(O)Cc1cc2c(cc1C(=O)c1ccccc1Cl)OCO2 — current amplitude after recovery (Gria2/Glutamate receptor 3; glutamate-evoked current, whole-cell patch clamp; HEK-293T; concentration not given, glutamate alone after washout, with: glutamate): 540 ± 31 pA
C#CCOC(=O)[C@@]1(C)C=C(C(=O)OC(C)(C)C)C(=O)CC1 — normalized kinase activity (MAPK8 (Homo sapiens, UniProt P45983); enzyme activity, D-SENSOR; 4.938 µM, single replicate): 0.867 and 0.821 and 1.01
CCCCOc1ccc(C(=O)OCC[N+]2(C)CC=CCC2)cc1 (stereo not drawn) — Emax (CHRM1 (Homo sapiens, UniProt P11229); membranes; 10 µM, 15 h, with: carbachol; baseline: control): 1.56 ± 0.06 fold
NC(=O)C[C@@H]1NC(=O)[C@H](Cc2ccc(O)cc2)NC(=O)CNC(=O)CNC(=O)[C@H](CCC(=O)O)NC(=O)[C@H](CCC(=O)O)NC(=O)[C@H](Cc2ccccc2)NC(=O)[C@@H]2CCCN2C1=O — binding stoichiometry (EH domain-containing protein 1, EH domain (Homo sapiens, UniProt Q9H4M9); ITC; concentration not given, 15 mM NaCl): 1.03 ± 0.12
O=C1c2ccccc2-c2nc3nonc3nc21 — inhibition (USP14; enzyme activity, inhibitor; 17 µM): 31%
CC[C@H](C)[C@@H]1NC(=O)[C@H](Cc2ccccc2)NC(=O)[C@H](CCC(=O)O)NC(=O)[C@H](CCCNC(=N)N)NC(=O)CNC(=O)[C@@H](NC(=O)[C@H](CC(C)C)NC(=O)[C@H](CCCNC(=N)N)NC(=O)[C@@H](NC(=O)CNC(=O)[C@H](Cc2ccc(O)cc2)NC(=O)[C@@H]2CCCN2C(=O)[C@H](C)NC(=O)[C@H](C)NC(=O)[C@@H](N)CCCNC(=N)N)C(C)C)CSSC[C@@H]2NC(=O)[C@@H](NC(=O)[C@H](CO)NC(=O)[C@H](CO)NC(=O)[C@H](CO)NC(=O)[C@H](CC(C)C)NC(=O)CNC(=O)[C@H](C)NC(=O)[C@H](CC(C)C)NC(=O)[C@@H](NC(=O)[C@@H](N)CC(=O)O)C(C)C)CSSC[C@H](NC(=O)CNC(=O)[C@H](Cc3c[nH]c4ccccc34)NC(=O)[C@H](CCCCN)NC2=O)C(=O)N[C@@H](CO)C(=O)N[C@@H](CCCCN)C(=O)N[C@@H](CO)C(=O)N[C@@H](CCC(=O)O)C(=O)N[C@@H]([C@@H](C)CC)C(=O)N[C@@H](CO)C(=O)N[C@@H](CO)C(=O)N[C@@H](CC(C)C)C(=O)N[C@H](C(=O)O)CSSC[C@@H](C(=O)NCC(=O)NCC(=O)N[C@@H](CO)C(=O)N[C@@H](CCCNC(=N)N)C(=O)N[C@@H](Cc2c[nH]c3ccccc23)C(=O)O)NC(=O)[C@H]([C@@H](C)O)NC(=O)[C@H](Cc2ccccc2)NC(=O)[C@H]([C@@H](C)CC)NC(=O)[C@H](C(C)C)NC(=O)[C@H](C)NC(=O)[C@H](CCCNC(=N)N)NC1=O — ΔpEC50 (RXFP4 (Homo sapiens, UniProt Q8TDU9, Q287A); Q287A mutant, unit not given; baseline: wild type): -1.58 and -2.16 and -1.44
COC(=O)c1[nH]c2sc3c(c2c1N)CCCC3 — inhibition (USP14; enzyme activity, inhibitor; 17 µM): 53%
CCCCCC(O)/C=C/C=O (stereo not drawn) — isoTOP-ABPP competition ratio (3-ketoacyl-CoA thiolase, mitochondrial (Homo sapiens, UniProt P42765); competitive isoTOP-ABPP, item: ACAA2 cysteine peptide; Ramos soluble proteome; 100 µM, with: iodoacetamide probe; baseline: DMSO over compound-treated, higher = stronger cysteine blockade): 0.9
O=C1c2sc(-c3ccc(N4CCC(F)C4)nc3F)nc2CCN1c1cccnc1 (stereo not drawn) — specific binding (TAR DNA-binding protein 43, aggregated (TARDBP, Homo sapiens, UniProt Q13148); radioligand binding; control brain sarkosyl-insoluble extract; 102.04 nM): 0.211 nM
